{"data": "Measurements of several laboratories", "note": "Each numbered part is a random draw from the data of one study; scales do not carry over between parts.", "UniProt P61075, sequence (whole entry, looked up)": "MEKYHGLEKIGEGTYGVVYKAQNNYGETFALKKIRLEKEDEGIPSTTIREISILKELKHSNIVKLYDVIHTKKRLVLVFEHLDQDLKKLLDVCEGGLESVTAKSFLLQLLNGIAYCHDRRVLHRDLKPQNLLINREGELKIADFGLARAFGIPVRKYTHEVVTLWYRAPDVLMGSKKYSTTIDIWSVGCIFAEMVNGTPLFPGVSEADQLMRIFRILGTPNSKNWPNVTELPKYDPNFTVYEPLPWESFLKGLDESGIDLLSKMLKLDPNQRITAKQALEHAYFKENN", "UniProt Q9UBS0, sequence (whole entry, looked up)": "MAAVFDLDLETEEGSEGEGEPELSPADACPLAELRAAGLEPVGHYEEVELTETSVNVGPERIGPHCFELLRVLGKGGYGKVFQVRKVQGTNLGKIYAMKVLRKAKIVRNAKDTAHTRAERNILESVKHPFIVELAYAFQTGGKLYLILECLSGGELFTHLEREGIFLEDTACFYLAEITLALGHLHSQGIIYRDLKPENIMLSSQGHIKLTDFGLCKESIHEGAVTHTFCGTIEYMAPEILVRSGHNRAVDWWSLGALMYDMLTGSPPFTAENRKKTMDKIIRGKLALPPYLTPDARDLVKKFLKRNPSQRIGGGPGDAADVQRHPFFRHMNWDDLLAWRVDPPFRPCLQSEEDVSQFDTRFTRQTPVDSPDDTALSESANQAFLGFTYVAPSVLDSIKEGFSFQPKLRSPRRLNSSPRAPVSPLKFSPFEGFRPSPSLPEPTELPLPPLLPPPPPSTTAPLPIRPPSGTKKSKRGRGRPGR", "UniProt O14965, sequence (whole entry, looked up)": "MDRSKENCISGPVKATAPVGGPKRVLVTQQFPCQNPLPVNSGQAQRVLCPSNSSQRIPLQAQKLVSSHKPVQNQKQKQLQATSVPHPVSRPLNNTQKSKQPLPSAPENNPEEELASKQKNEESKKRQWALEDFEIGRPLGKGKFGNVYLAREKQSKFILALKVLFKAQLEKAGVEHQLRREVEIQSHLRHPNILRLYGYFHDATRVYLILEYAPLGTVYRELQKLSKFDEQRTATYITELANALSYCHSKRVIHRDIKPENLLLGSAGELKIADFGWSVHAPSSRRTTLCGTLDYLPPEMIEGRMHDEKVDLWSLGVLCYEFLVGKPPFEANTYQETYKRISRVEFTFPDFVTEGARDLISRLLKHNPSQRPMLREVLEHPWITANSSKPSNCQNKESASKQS", "UniProt Q00535, sequence (whole entry, looked up)": "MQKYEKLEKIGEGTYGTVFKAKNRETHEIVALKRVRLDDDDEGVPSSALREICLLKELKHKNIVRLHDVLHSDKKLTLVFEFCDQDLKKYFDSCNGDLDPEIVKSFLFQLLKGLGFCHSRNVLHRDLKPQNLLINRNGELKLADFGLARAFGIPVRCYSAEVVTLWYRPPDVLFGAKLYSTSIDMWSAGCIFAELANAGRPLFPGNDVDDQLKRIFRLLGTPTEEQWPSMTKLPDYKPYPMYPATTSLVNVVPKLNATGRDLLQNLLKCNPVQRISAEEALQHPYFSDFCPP", "UniProt P08709, sequence (whole entry, looked up)": "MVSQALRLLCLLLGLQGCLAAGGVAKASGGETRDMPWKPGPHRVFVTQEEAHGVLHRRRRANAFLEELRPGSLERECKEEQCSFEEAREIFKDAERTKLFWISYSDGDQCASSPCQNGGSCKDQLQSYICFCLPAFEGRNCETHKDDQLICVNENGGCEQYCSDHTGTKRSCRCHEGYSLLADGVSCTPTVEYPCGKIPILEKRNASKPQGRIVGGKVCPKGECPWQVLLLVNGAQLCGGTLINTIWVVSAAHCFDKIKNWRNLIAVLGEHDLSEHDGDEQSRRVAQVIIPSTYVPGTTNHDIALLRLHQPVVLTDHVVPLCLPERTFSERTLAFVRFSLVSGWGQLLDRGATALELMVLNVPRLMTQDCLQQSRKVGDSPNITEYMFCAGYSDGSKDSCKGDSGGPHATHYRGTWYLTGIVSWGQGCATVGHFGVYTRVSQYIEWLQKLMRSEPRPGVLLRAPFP", "UniProt Q14289, sequence (whole entry, looked up)": "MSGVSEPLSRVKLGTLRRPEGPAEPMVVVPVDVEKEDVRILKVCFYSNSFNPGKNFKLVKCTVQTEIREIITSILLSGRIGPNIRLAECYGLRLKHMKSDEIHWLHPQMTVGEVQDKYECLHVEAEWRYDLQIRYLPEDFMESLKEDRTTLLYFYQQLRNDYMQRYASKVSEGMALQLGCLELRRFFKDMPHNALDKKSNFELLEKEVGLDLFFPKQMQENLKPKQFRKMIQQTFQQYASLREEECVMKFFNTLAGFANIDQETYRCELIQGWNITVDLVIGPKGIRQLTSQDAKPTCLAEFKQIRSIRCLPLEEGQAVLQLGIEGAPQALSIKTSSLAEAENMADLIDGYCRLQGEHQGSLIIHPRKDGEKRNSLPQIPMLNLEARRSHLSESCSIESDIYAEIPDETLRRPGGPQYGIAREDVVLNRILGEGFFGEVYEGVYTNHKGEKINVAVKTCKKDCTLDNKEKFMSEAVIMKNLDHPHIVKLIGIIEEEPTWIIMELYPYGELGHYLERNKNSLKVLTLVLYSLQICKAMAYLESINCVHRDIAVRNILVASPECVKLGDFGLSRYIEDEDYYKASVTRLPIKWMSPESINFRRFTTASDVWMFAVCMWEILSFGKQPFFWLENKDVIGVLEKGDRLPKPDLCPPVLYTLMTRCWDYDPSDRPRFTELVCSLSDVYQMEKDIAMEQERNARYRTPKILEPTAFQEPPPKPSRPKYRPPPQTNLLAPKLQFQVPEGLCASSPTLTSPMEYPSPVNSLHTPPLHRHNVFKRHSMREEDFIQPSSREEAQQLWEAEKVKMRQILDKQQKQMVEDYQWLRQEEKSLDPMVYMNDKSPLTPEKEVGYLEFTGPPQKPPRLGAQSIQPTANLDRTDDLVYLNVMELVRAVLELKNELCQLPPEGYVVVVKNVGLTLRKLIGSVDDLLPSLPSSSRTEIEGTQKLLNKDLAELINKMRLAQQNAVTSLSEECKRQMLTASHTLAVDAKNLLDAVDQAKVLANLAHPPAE"}
{"data": "Series 1", "SMILES": "CC(C)(C)c1cc(C=C(C#N)C#N)cc(Br)c1O", "read-out": "enzyme activity", "mode": "inhibitor", "tested at": "0.5 µM"}
{"target": "Cyclin-dependent kinase 5, with p25 (CDK5, Homo sapiens, UniProt Q00535)", "remaining activity": "98.2%"}
{"target": "RPS6KB2 (Homo sapiens, UniProt Q9UBS0)", "remaining activity": "102%"}
{"target": "Aurora kinase A (AURKA, Homo sapiens, UniProt O14965)", "scale": "relative to: control", "remaining activity": "89.8%"}
{"target": "PTK2B (Homo sapiens, UniProt Q14289)", "scale": "relative to: control", "remaining activity": "99.3%"}
{"data": "Single results of other studies", "CDPK1": "Calcium-dependent protein kinase 1 (CDPK1, Plasmodium falciparum, UniProt P62344)", "UniProt P62344, sequence (whole entry, looked up)": "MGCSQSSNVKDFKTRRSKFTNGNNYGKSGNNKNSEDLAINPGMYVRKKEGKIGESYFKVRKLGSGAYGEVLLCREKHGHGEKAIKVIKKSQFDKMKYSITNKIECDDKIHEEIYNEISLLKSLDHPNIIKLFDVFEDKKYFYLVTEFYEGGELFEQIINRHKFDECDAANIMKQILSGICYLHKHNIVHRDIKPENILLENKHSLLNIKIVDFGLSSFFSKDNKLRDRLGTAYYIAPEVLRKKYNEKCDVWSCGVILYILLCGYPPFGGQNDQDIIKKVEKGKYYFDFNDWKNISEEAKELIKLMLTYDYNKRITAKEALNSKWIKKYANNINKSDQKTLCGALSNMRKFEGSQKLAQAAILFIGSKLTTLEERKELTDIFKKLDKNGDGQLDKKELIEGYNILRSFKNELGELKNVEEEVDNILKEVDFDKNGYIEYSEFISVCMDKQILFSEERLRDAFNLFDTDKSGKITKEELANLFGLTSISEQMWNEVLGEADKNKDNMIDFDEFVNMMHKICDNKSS"}
{"SMILES": "Cc1cc(C)c(-n2ccn3nc(-c4cccnc4)cc23)cc1NC(=O)c1cc(C#N)cc(S(F)(F)(F)(F)F)c1", "target or system": "CDPK1", "test": "cell-free assay, competition with immobilised ligand", "setting": "0.1 µM", "quantity": "remaining binding", "value": "88.9%"}
{"SMILES": "N=C(N)c1ccc2nc(-c3cc(CC(=O)N[C@@H](CC(=O)O)C(=O)O)cc(-c4cc(S(N)(=O)=O)ccc4O)c3O)[nH]c2c1", "target or system": "F7 (Homo sapiens, UniProt P08709)", "quantity": "IC50", "value": "36.7 nM"}
{"SMILES": "Cn1nc(C(=O)NCc2ccc(C(=O)O)cc2)cc1-c1ccc2[nH]ccc2c1", "target or system": "CRK2 (Plasmodium falciparum, UniProt P61075)", "test": "cell-free assay, competition with immobilised ligand", "setting": "0.1 µM", "quantity": "remaining binding", "value": "74%"}
{"SMILES": "CCOc1ccc(N2C(=O)N=C(O)C3(Cc4c(ccc5ccccc45)N(C)C3)C2=O)cc1 (stereo not drawn)", "system": "mouse, microsomes or S9", "setting": "2 µM, 0.5 h", "quantity": "remaining compound", "value": "27.4%"}
{"SMILES": "CN(C)C(=O)Cn1cc(-c2nc(C3(c4ccc(-c5cnc(N)nc5)cc4)CC3)no2)cn1", "target or system": "CDPK1", "test": "cell-free assay, competition with immobilised ligand", "setting": "1 µM", "quantity": "remaining binding", "value": "82%"}
